Measurements collected from several papers.
Compare with care: the assays were run in different laboratories.
CTSL: Procathepsin L (CTSL, Homo sapiens, UniProt P07711)
Sequence of UniProt P07711 (whole entry, looked up): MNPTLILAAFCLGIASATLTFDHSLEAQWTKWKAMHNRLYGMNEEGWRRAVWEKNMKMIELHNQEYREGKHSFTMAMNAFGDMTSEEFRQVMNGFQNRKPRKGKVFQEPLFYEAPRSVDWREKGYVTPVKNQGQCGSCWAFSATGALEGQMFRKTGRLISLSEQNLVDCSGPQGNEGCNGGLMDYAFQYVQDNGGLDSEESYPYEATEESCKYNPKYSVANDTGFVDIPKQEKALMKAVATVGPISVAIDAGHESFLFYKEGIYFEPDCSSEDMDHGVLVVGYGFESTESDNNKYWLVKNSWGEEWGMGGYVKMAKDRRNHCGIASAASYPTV
TMPRSS2: Transmembrane protease serine 2 (TMPRSS2, Homo sapiens, UniProt O15393)
Sequence of UniProt O15393 (whole entry, looked up): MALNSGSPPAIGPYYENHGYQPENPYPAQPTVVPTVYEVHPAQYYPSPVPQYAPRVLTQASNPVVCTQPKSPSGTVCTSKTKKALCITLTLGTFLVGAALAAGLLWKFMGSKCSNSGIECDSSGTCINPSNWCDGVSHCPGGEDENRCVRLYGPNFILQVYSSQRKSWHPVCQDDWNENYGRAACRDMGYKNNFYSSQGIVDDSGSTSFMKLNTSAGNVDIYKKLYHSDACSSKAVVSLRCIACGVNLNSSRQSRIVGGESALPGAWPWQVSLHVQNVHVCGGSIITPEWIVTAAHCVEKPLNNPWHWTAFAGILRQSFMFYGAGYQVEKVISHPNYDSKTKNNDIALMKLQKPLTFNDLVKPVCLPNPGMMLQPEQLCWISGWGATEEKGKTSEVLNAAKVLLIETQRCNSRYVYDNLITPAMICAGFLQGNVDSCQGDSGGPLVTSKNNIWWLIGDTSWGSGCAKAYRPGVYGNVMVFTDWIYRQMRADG
Sequence of UniProt P50406 (whole entry, looked up): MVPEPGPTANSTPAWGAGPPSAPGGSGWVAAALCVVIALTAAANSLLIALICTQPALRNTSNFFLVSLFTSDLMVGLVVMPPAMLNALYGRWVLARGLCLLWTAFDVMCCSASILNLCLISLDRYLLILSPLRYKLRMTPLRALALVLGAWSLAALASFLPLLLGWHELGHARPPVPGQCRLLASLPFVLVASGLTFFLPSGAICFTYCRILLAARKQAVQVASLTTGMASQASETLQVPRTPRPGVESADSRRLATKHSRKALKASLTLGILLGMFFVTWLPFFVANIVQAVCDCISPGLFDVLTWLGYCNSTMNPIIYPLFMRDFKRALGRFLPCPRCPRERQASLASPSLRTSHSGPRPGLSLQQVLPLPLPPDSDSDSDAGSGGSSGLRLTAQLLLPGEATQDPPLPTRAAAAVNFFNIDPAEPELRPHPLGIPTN
Sequence of UniProt P22303 (whole entry, looked up): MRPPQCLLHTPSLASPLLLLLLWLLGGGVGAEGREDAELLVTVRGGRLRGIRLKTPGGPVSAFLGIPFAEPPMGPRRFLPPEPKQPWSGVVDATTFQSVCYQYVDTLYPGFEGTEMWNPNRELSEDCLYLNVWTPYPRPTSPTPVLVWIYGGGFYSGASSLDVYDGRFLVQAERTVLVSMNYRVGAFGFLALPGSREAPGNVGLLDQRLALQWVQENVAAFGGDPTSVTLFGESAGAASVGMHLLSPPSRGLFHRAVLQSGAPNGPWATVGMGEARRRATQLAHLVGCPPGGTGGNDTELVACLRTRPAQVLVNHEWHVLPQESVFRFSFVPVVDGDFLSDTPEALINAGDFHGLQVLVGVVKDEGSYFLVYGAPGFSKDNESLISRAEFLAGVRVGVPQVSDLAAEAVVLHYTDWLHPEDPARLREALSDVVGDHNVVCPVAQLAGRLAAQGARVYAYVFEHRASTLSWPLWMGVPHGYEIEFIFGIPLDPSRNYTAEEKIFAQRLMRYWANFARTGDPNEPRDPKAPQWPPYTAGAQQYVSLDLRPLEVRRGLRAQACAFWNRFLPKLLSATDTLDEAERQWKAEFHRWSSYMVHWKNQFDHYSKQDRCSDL
Sequence of UniProt P25105 (whole entry, looked up): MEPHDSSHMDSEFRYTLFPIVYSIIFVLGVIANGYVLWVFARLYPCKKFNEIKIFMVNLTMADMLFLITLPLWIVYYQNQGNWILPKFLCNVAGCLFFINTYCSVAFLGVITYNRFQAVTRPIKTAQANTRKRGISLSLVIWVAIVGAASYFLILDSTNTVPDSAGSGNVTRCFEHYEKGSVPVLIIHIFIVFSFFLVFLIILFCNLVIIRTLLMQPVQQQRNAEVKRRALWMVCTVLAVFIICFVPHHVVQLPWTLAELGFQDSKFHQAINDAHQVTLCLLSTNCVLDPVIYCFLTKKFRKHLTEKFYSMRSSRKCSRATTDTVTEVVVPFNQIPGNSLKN
Sequence of UniProt P21554 (whole entry, looked up): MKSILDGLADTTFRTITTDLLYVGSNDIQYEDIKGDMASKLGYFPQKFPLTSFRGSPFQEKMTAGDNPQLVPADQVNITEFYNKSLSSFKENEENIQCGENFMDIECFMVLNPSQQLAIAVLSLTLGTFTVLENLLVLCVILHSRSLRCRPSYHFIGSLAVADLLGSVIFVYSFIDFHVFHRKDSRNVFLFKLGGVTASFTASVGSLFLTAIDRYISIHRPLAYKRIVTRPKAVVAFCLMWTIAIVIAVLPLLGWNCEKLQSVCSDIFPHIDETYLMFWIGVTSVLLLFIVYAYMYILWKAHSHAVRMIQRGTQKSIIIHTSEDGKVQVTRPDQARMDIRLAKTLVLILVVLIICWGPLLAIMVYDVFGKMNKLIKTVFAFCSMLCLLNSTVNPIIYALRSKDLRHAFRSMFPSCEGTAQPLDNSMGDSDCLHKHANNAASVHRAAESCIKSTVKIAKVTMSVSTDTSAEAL
Sequence of UniProt P41144 (whole entry, looked up): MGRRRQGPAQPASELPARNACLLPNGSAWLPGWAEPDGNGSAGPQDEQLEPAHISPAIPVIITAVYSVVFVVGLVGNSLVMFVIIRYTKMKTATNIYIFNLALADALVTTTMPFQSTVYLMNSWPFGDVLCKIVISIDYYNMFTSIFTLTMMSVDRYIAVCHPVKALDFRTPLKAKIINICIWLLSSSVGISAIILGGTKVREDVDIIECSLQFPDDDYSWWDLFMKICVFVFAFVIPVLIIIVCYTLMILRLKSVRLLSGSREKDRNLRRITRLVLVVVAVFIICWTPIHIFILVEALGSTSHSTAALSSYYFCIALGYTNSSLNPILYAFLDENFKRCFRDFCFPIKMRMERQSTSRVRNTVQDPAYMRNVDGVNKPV
Sequence of UniProt Q15569 (whole entry, looked up): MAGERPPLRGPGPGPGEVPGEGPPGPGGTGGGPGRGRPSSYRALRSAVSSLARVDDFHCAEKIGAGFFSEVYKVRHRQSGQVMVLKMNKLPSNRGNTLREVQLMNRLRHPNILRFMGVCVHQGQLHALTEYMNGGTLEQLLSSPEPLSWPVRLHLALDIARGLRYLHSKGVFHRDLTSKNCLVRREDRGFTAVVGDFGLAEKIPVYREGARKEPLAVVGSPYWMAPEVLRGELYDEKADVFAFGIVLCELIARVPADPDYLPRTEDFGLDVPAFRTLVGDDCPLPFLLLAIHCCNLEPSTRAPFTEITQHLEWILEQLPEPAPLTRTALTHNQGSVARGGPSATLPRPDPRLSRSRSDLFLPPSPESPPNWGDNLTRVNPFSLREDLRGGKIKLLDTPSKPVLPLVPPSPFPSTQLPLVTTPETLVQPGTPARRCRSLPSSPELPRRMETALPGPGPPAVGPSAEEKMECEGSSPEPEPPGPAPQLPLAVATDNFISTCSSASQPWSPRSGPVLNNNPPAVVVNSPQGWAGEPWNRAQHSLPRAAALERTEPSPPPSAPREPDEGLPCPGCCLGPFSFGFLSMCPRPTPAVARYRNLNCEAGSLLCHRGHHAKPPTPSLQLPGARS
Sequence of UniProt Q7L7X3 (whole entry, looked up): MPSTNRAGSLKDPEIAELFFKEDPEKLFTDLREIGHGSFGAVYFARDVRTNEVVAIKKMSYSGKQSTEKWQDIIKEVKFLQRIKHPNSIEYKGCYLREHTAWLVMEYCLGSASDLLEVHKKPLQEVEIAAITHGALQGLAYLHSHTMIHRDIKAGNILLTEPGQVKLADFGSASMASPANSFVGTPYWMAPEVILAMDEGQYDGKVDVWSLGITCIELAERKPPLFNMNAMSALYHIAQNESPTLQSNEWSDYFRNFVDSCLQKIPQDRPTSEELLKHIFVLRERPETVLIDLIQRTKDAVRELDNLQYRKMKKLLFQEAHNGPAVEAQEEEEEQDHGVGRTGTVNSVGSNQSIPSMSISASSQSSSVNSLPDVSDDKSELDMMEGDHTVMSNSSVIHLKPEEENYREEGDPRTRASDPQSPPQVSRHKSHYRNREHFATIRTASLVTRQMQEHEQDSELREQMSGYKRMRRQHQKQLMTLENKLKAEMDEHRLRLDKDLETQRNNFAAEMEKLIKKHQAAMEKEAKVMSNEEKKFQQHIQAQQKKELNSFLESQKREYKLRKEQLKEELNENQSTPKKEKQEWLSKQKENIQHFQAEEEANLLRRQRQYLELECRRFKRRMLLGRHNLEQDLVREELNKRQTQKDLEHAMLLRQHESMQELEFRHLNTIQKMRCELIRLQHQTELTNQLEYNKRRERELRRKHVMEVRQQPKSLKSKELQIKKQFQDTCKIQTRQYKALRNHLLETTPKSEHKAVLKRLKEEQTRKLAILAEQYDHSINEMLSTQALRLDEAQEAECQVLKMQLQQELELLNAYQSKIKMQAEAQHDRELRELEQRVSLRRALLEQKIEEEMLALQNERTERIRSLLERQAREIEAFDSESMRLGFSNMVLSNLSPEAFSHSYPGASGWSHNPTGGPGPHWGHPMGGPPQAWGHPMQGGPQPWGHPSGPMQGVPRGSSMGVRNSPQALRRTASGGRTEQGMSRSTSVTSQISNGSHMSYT

Structure (SMILES) | target or system | test | system | conditions | measurement | result
c1cncc([C@@H]2CCCN2)c1 | Muscarinic acetylcholine receptor M4 (CHRM4, Homo sapiens, UniProt P08173) | ligand displacement |  | 50 µM | inhibition | -3.41%
NC(=O)[C@H](Cc1ccccc1)NC(=O)[C@H](Cc1c[nH]c2ccccc12)NC(=O)[C@@H]1CCCN1C(=O)[C@@H](N)Cc1ccc(O)cc1 | CTSL | enzyme activity, inhibitor |  | 100 µM | remaining activity | 96.3%
CC(C)CC(=O)OC[C@H]1O[C@@](C#N)(c2ccc3c(N)ncnn23)[C@H](O)[C@@H]1O | Platelet-activating factor receptor (PTAFR, Homo sapiens, UniProt P25105) | cell-free assay |  | 20 µM | inhibition | 4%
CC(C)[C@H](NC(=O)[C@H](COCc1ccccc1)NC(=O)CCc1ccccc1)C(=O)N[C@@H](CCCNC(=N)N)C(=O)c1nc2ccccc2s1 | TMPRSS2 | enzyme activity, inhibitor |  | 1 nM | activity vs control | 76%
C#Cc1n[nH]c2c(-c3cn(C(C)c4ccccn4)c(=O)[nH]c3=O)cc(F)cc12 (stereo not shown) | Ephrin type-B receptor 4 (EPHB4, Homo sapiens, UniProt P54760) | enzyme activity, inhibitor |  | 1 µM | inhibition | 3.8%
CCOc1cccc(=O)c2c(C)n(Cc3ccc(Cl)cc3)c(C)c12 | Dihydroorotate dehydrogenase (quinone), mitochondrial (PFF0160c, Plasmodium falciparum, UniProt Q08210) | enzyme activity, inhibitor, absorbance |  |  | IC50 | > 10 µM
C[C@H](NC(=O)[C@H](CCC(N)=O)NC(=O)C[C@@H](N)CCCNC(=N)N)C(=O)N[C@@H](CCCNC(=N)N)C(=O)c1nc2ccccc2s1 | TMPRSS2 | enzyme activity, inhibitor |  | 1 nM | activity vs control | 94%
COC(=O)c1cc(-c2cccc(NC(=O)Nc3ccc(Cl)c(C(F)(F)F)c3)c2)on1 | Pseudomonas aeruginosa | microbial growth, broth dilution | ATCC27853 |  | MIC | > 64 µg/mL
CC(C)[C@H](NC(=O)[C@H](Cc1ccc(O)cc1)NC(=O)CCc1ccccc1)C(=O)N[C@@H](CCCNC(=N)N)C(=O)c1nc2ccccc2s1 | TMPRSS2 | enzyme activity, inhibitor |  | 1 nM | activity vs control | 86%
CCN(CC)CCCC[C@H](NC(=O)[C@H](CC(C)C)NC(=O)[C@H](C)NC(=O)[C@H](Cc1ccccc1)NC(=O)c1ccc(C(C)(C)C)cc1)C(=O)N[C@@H](CO)C(=O)OC | 5-hydroxytryptamine receptor 6 (HTR6, Homo sapiens, UniProt P50406) | ligand displacement, radioligand |  | 10 µM | remaining binding | 105%
COc1cc(C(F)(F)F)c(OC)cc1C1CCCNC1 (stereo not shown) | 5-hydroxytryptamine receptor 2A (Htr2a, Mus musculus, UniProt P35363) | G protein activation, agonist, BRET |  |  | Emax | 95%
CCC[C@H](NC(=O)[C@H](CCc1ccccc1)NC(=O)CCc1ccccc1)C(=O)N[C@@H](CCCNC(=N)N)C(=O)c1nc2ccccc2s1 | TMPRSS2 | enzyme activity, inhibitor |  | 1 nM | activity vs control | 70%
[2H]c1c([2H])c([C@]2([2H])CCCN2C(=O)C(C)(C)Oc2ccc3cn[nH]c3c2)c([2H])c([2H])c1C([2H])([2H])[2H] | Dual specificity testis-specific protein kinase 1 (TESK1, Homo sapiens, UniProt Q15569) | binding, competition with immobilised ligand |  | 1 µM | remaining binding | 86%
CN1CCC[C@H]1c1cccnc1 | Beta-1 adrenergic receptor (ADRB1, Homo sapiens, UniProt P08588) | ligand displacement |  | 50 µM | inhibition | -6.55%
Cc1nn(C)cc1-c1nc2c(N3CCN(Cc4ccc(Cl)cc4)CC3)c(Cl)cnc2[nH]1 | Epidermal growth factor receptor (EGFR, Homo sapiens, UniProt P00533, L858R/T790M) | binding, competition with immobilised ligand |  | 1 µM | remaining binding | 91%
N=C(N)NCCC[C@H](NC(=O)[C@H](Cc1ccccc1)NC(=O)[C@H](CCC(N)=O)NC(=O)[C@@H]1CCC(=O)N1)C(=O)c1nc2ccccc2s1 | TMPRSS2 | enzyme activity, inhibitor |  | 1 nM | activity vs control | 50%
O=C(N=Nc1c(O)n(CC2CCCCC2)c2ccccc12)c1ccccc1 | Cannabinoid receptor 1 (CNR1, Homo sapiens, UniProt P21554) | β-arrestin recruitment, agonist | HEK293 |  | Emax | 127%
COc1ncccc1-c1cnn2ccc(N3CCN(C(=O)OC(C)C)CC3)nc12 | Microtubule-associated serine/threonine-protein kinase 1 (MAST1, Homo sapiens, UniProt Q9Y2H9) | binding, competition with immobilised ligand |  | 1 µM | remaining binding | 82%
CC(=O)N[C@@H](CCC(N)=O)C(=O)N[C@@H](Cc1ccccc1)C(=O)N[C@H](CCNC(=N)N)CC(=O)c1nc2ccccc2s1 | TMPRSS2 | enzyme activity, inhibitor |  | 1 nM | activity vs control | 101%
CC[C@@H](C)[C@@H]1CN([C@@H](CC2CCCCC2)CN2CCC[C@H]2CN2CCNC[C@@H]2CO)CCN1CCc1ccc(Cl)c(Cl)c1 | Kappa-type opioid receptor (OPRK1, Cavia porcellus, UniProt P41144) | ligand displacement, radioligand |  | 0.5 µM, pH 7.5 | remaining binding | 101%
Nc1ncc(-c2nc(N3CCOCC3)nc(N3CCOCC3)n2)c(C(F)F)n1 | Serine/threonine-protein kinase TAO1 (TAOK1, Homo sapiens, UniProt Q7L7X3) | binding, competition with immobilised ligand |  | 10 µM | remaining binding | 60%
CN1C(=O)/C(=N\Nc2ncc(-c3cc4ccccc4oc3=O)s2)c2cc(Cl)ccc21 | Acetylcholinesterase (ACHE, Homo sapiens, UniProt P22303) | enzyme activity, inhibitor, Ellman |  | 0.5 µM | inhibition | 78%
N=C(N)NCCC[C@@H](NC(=O)[C@H](Cc1ccccc1)NC(=O)[C@H](CCC(N)=O)NC(=N)N)C(=O)c1nc2ccccc2s1 | TMPRSS2 | enzyme activity, inhibitor |  | 1 nM | activity vs control | 48%
NCCc1ccccc1 | CTSL | enzyme activity, inhibitor |  | 100 µM | remaining activity | 93.7%
COc1ccccc1C1CN(CCNC(=O)c2nc(C)c[nH]2)Cc2ccccc2O1 (stereo not shown) | Dihydroorotate dehydrogenase (quinone), mitochondrial (PFF0160c, Plasmodium falciparum, UniProt Q08210, E182D) | enzyme activity, inhibitor, absorbance |  |  | IC50 | > 10 µM

A few entries again:
Structure (SMILES) | target or system | test | system | conditions | measurement | result
CC(=O)N[C@@H](CCC(N)=O)C(=O)N[C@@H](Cc1ccccc1)C(=O)N[C@H](CCNC(=N)N)CC(=O)c1nc2ccccc2s1 | TMPRSS2 | enzyme activity, inhibitor |  | 1 nM | activity vs control | 101%
CC[C@@H](C)[C@@H]1CN([C@@H](CC2CCCCC2)CN2CCC[C@H]2CN2CCNC[C@@H]2CO)CCN1CCc1ccc(Cl)c(Cl)c1 | Kappa-type opioid receptor (OPRK1, Cavia porcellus, UniProt P41144) | ligand displacement, radioligand |  | 0.5 µM, pH 7.5 | remaining binding | 101%
